Measurements gathered from unrelated publications.
Each numbered part is a random draw from the data of one study; scales do not carry over between parts. Changes are numbered by the printed parent chain.

Set 1 — technique: RNA Bind-n-Seq; form: RNA; matrix: in vitro; concentration: 365 nM; reference: no-protein control; direction: higher = stronger binding
Target: RNA binding protein fox-1 homolog 2, RRM domain, GST-SBP tag (RBFOX2, Homo sapiens, UniProt O43251-10, residues 100-194)
Notes: natural RNA segment, single round, ends assumed
Construct (chain): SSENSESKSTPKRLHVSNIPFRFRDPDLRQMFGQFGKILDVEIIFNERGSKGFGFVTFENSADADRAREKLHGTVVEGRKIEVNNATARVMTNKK
Strand	RBNS enrichment (R)
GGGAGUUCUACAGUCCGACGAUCUAUGGUUAAACUGUAAAUCUUAUGUUUACAAAAAUACUGUAAUCUUCAGGAAAUCACUGUAUUAGGAAUGUGCAAUGACUUAUAUAAAUAAAGCCAUUUUUUGAAACUGCUGGAAUUCUCGGGUGCCAA	0.557
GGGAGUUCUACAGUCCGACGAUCUCGCAGAGGCGGUGGGAAGGCUGUCAGAGCCUGUGUUCUGAUUUUUCAGAAAACAGGUCUCUCCUUUUGUAAAUCUGGAAUGAUGUAAGAAAAUGCUUUUGGUUACUGAUUGGAAUUCUCGGGUGCCAA	1.18
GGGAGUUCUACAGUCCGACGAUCCUGAAAUGUUGCUGAAAAGCAUGGUGCUGGUAACAGUUCAACAAUCCGUGGCUGCUCAUUCUUGCCUACUUUACUCUCCCACUGAAGCAGGUUAGCGUUGAAGGUGGUAUUGGAAUUCUCGGGUGCCAA	6.55
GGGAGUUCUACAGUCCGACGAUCUAUGGAGCAGCCGGAAGUCUGUUCUCAAAGCAGAAGUGGAAUCCAGUGUGGCUCCCACAGGUCUUCACUGCCCAGGGGUCGAAUGGGGUCCCCCUCCCACUUGACCUGAGUGGAAUUCUCGGGUGCCAA	0.176
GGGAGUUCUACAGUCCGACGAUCUGCUUUCCUUCCUCGCUACUUCCUAAAAAGCAACAAAAAAGUUUUUGUGAAUGCUGCAAGAUUGUUGCAUUGUGUAUACUGAGAUAAUCUGAGGCAUGGAGAGCAGAUUCUGGAAUUCUCGGGUGCCAA	13.5
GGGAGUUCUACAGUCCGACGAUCUUUCAUUUUUUUCCUUUGAUUGAUACAACACUAUAAUUUUCAUUUCAGUUCCUUAGUCGUGUCUACUUACCUAGCAGUUUAGAAACUGUCAGUCAUGUAACUGGCAAGGAUGGAAUUCUCGGGUGCCAA	0.817
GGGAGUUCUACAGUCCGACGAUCAGGUCUAGUGUGUAUGGAUCUGGGAUCUCCGCCCUUGAGGCAGAGACGGGAAGAUCAGGAGUUCAAGGUCUUAGCUACAUAGUAAGUUUGAAGCCAGCCUGGCUACUUGAUGGAAUUCUCGGGUGCCAA	0.754
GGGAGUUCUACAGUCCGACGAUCACCUGUCUGUAUUGCCGAAUCUGGCCCCAUGUUUUCUGUAUUCCUGUUUGUGGUAGGAGAUAACCAGUCUUGUUUGUUUCUUACAUGGCAUUCCUUUGUUGUCCUGGGAUUGGAAUUCUCGGGUGCCAA	0.795
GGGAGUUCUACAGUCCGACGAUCUGCUUCUGGAUUCUCACCUUCACAGGGAGUUUCUUCCCGCCUCGGCCUUCUGGACAUGUCCUCUGUCCUGCCUCAGAGAGCUUUGCCUGGCUCCACCUCCUCUCCUGAGUUGGAAUUCUCGGGUGCCAA	0.372
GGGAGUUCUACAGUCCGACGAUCUGCCCCAAAUGCAGCUUCAUUUUCCAGAUACCUUGACGCAGAAUAAAUUUUUUCAUCAUUUAGGUGCGCUUGUUGUGUAGUAUGUUUUAUUUUUGGUUUUCAAUUGAAUGUGGAAUUCUCGGGUGCCAA	0.362
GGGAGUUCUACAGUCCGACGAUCGUACAUGCUGAACUCCAAAUUCUUCCAUAUCAACUUCAAGCCCCAAGCCUCCAAUGUAUUACCUACCAUGCGCAUGAAUAAUUUUCUUCCAUGGCUUUUACACUGUCAACUGGAAUUCUCGGGUGCCAA	0.724
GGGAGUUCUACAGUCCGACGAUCGUUCAUUGGAAAUCUUCUUCCCUACAGCAGUAAGCAAAAAUUAGCAAAGAGAUAGUCUAAAUGGCCUCUCAGCUUGGUAUGUGAAAAUGAGAUCACAUACUUUUUAAAUCUGGAAUUCUCGGGUGCCAA	0.513

Set 2 — technique: DHFR PCA, deep sequencing; matrix: yeast; with: (+)-ABA 17 µM; reference: wild-type fitted maximum; direction: higher = stronger binding
Target: ABI1, truncated, D143A, DHFR fusion (Arabidopsis thaliana)
Notes: methotrexate growth selection, single substitutions
Starting sequence: PYL1, truncated, DHFR fusion (Arabidopsis thaliana); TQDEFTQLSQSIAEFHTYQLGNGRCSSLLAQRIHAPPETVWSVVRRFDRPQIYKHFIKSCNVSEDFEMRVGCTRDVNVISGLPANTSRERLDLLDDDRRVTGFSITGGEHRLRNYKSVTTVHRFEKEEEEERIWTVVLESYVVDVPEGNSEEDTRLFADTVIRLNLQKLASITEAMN
Change	relative binding score [%]
T120N	9.52
I172R	29
T119D	-9.85
N77H	97.1
R163K	89.2
F5Q	76.6
Q167C	75.6
I33C	61.9
G81H	6.75
E152W	72.4
T73M	87.6
A13C	71.7
E127R	85.2
L164M	84.7
T173A	85.3
R111S	15.1

Set 3 — technique: protein-binding microarray; form: double-stranded DNA, one strand shown; matrix: in vitro; concentration: 940 nM top; notes: 60-bp whole probe; with: salmon DNA 0.4 mg/ml; reference: random background probes; direction: higher = stronger binding; all sequences stand within: GCCTAGCAC … GTCTTGATTCGCTTGACGCTGCTG
Target: Interferon regulatory factor 5, full length, phosphomimetic (IRF5, Homo sapiens, UniProt Q13568-2, residues 1-514, S451D/S453D/S456D/S462D)
Strand	fitted relative affinity [z-score]
AGTTCTCTGAAGACTCTCTTGGTGCTA	0.363
TCACCTTTCTCTCTGTGACTGTGCTAG	1.66
GACGGTTTCGACTTTCGGGATGTGCTA	7.25
TTAGATTTCAGACAGGATTAGTGCTAG	-0.217
CATTTTCTCTGTTCTAGAAGGTGCTAG	2.43
TAAGGTTTCCTTCTCCTTTAGTGCTAG	1.64
GCCGATATCGGGTATCGAGACGTGCTA	1.92
TTAGATATCGGGTATCTATTAGTGCTA	0.655
TTAGGTCTCCTGCTCCTTTAGTGCTAG	0.00613
TTAGGTTTAGGGTATCGGTTAGTGCTA	2.31
TCCTGGAGTCTATGCTGCTGGTGCTAG	-0.311
TTAGATCTCAGTCTCGCTTAGTGCTAG	1.4
TTAGGACTGGCTATCGGTTAGTGCTAG	-0.136
TTAGGTATCGGTATCGGTTAGTGCTAG	11
TCATTTTTCATTATTGTACTGTGCTAG	1.43
TCAAATTTAGAAAATGGAACTGTGCTA	-0.422
TCAAAACTCACTCATGGCACTGTGCTA	-0.027
AAGGAAGGACCATCCAGAGAGTGCTAG	-0.482
TTACGTATCGACTATCGGTTAGTGCTA	4.13
GACGGTTCACTTTTCCTGACGTGCTAG	0.454

Set 4 — target: CCNA1, cyclin fold, Cln2 fusion (human); technique: yeast growth competition, sequencing; matrix: yeast; notes: weak parent motif; reference: not given; direction: higher = stronger binding
Starting sequence: MICAL3 docking peptide (human); LQLRRQLSFSEDS
Change	normalised enrichment score
D12L	0.586
R4H	-0.0502
S10N	0.423
R4T	-0.0953
L7Q	0.0127
R4Y	0.261
L3M	0.117
R5E	0.0599
R4E	-0.452
E11H	0.184
L3P	0.877
L7E	0.292
D12A	0.479
R4A	0.317
R5H	-0.0482
E11Y	0.398
Q2S	0.538
L3R	0.561
L7I	0.365
L3H	0.223
Q2Y	0.224
F9D	-0.274
Q6C	0.505
L7S	0.0476
Q2F	0.269
